{"data": "Experimental data gathered from unrelated publications", "CA9": "Carbonic anhydrase 9 (CA9, Homo sapiens, UniProt Q16790)", "note": "Lines come from different studies, so protocols differ. pIC50: −log10 of the molar value.", "chain of UniProt P42336 (whole entry, unmodified, looked up)": "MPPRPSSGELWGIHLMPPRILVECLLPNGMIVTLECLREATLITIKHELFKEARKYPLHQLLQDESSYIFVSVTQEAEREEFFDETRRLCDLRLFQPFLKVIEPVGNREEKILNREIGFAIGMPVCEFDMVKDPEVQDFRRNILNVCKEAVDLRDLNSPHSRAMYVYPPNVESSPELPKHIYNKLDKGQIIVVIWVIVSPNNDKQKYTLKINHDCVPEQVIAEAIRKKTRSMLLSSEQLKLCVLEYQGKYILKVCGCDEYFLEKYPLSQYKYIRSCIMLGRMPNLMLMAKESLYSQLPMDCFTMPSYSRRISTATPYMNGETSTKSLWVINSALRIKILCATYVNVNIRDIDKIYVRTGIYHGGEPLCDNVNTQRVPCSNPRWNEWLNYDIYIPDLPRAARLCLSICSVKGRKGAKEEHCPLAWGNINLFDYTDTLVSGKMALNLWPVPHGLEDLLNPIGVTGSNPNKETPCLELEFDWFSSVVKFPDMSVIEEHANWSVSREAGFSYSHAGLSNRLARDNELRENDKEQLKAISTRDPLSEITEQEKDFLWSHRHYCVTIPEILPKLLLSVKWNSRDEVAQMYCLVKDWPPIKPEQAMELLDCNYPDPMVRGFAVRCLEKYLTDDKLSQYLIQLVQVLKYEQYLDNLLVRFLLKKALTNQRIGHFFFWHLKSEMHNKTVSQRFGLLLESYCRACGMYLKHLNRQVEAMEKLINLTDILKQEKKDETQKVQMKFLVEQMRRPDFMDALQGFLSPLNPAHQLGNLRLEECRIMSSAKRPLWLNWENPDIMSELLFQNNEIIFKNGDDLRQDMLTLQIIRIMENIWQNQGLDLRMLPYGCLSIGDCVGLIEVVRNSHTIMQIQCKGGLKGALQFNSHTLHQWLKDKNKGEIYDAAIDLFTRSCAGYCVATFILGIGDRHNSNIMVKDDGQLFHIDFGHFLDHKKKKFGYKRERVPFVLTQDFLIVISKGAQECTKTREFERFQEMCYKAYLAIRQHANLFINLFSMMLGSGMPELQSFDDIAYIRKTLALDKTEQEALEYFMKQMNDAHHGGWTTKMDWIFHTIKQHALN", "chain of UniProt Q9HAZ1 (whole entry, looked up)": "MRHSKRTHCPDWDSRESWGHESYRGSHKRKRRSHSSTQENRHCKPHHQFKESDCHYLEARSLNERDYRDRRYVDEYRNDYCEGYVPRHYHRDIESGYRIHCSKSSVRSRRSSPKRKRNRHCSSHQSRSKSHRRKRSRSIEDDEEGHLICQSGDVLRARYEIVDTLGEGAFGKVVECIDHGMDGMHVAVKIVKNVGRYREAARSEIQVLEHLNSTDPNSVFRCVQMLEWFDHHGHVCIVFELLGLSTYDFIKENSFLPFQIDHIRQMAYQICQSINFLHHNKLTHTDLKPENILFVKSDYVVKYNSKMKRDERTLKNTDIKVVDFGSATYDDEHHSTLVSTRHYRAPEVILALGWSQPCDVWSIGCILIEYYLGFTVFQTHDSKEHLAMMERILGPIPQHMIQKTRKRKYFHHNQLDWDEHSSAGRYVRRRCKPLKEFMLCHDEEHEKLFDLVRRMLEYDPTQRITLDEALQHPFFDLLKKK", "chain of UniProt P50613 (whole entry, looked up)": "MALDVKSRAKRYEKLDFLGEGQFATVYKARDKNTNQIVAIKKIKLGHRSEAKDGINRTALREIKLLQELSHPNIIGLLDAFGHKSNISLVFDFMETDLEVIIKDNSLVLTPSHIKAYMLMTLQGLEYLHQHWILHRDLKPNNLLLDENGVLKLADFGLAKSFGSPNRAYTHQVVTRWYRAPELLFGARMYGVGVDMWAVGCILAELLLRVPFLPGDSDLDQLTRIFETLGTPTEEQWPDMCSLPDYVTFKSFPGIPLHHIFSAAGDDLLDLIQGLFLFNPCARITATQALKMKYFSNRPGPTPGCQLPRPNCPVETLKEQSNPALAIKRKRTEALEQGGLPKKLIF", "chain of UniProt P78362 (whole entry, looked up)": "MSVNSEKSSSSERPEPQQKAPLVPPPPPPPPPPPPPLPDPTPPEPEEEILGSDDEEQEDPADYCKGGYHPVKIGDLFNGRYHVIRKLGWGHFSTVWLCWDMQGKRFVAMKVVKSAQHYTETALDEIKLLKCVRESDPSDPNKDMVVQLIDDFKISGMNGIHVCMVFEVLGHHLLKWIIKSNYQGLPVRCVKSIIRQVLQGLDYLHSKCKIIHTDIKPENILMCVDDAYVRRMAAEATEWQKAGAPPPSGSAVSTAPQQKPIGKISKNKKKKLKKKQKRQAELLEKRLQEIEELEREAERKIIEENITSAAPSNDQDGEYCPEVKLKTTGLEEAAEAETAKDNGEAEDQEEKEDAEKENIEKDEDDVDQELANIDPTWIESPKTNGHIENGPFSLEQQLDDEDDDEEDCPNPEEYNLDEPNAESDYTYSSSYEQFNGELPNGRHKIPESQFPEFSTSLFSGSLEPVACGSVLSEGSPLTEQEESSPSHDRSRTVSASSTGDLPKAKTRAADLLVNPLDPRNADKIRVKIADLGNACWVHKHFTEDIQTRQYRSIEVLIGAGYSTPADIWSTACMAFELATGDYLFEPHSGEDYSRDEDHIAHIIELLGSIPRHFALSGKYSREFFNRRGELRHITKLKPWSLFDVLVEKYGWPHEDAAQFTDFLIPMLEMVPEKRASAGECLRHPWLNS", "chain of UniProt P51956 (whole entry, looked up)": "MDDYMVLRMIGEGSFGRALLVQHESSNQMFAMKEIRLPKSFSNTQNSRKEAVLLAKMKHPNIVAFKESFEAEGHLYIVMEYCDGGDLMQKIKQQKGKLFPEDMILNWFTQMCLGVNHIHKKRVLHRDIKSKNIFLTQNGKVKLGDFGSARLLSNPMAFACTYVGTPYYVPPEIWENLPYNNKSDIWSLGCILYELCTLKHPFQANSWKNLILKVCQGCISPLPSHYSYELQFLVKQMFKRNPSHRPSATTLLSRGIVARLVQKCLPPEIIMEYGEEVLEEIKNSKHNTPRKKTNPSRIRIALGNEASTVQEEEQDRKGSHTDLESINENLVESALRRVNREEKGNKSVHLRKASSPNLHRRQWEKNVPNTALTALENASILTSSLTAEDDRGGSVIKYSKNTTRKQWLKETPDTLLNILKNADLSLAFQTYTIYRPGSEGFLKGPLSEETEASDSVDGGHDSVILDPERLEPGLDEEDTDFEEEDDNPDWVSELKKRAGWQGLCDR"}
{"SMILES": "CCCCC(=O)Nc1ccc(-c2ccc3ncn(CCC)c(=O)c3c2)cn1", "target": "Phosphatidylinositol 4,5-bisphosphate 3-kinase catalytic subunit alpha isoform (PIK3CA, Homo sapiens, UniProt P42336, Q546K)", "assay": "binding, competition with immobilised ligand", "conditions": "0.5 µM", "measurement": "remaining binding", "value": "100%"}
{"SMILES": "Cc1cc([C@@H](C)Nc2ccccc2C(=O)O)c2nc(N3CCC(F)(F)CC3)c(C#N)c(=O)n2c1", "target": "Cyclin-dependent kinase 7 (CDK7, Homo sapiens, UniProt P50613)", "assay": "binding, competition with immobilised ligand", "conditions": "10 µM", "measurement": "remaining binding", "value": "90%"}
{"SMILES": "C1=C/COCc2cc(ccc2OCCN2CCCC2)Nc2nccc(n2)-c2cccc(c2)COC/1", "target": "Dual specificity protein kinase CLK4 (CLK4, Homo sapiens, UniProt Q9HAZ1)", "assay": "binding", "conditions": "0.1 µM", "measurement": "remaining binding", "value": "14%"}
{"SMILES": "C=CC(=O)N1CCC(COCC(=O)N2CCN(c3nc(-c4cnc(N)nc4C(F)F)nc(N4CCOC[C@@H]4C)n3)CC2)CC1", "target": "Phosphatidylinositol 4,5-bisphosphate 3-kinase catalytic subunit alpha isoform (PIK3CA, Homo sapiens, UniProt P42336, E545A)", "assay": "binding, competition with immobilised ligand", "conditions": "1 µM", "measurement": "remaining binding", "value": "0%"}
{"SMILES": "Cc1cc(S(N)(=O)=O)ccc1CNC(=O)Nc1ccc(Cl)c(C(=O)NCc2cccs2)c1", "target": "CA9", "assay": "enzyme activity, inhibitor", "measurement": "pIC50", "value": 7.07}
{"SMILES": "[2H]c1c([2H])c([C@]2([2H])CCCN2C(=O)C(C)(C)Oc2ccc3cn[nH]c3c2)c([2H])c([2H])c1C([2H])([2H])[2H]", "target": "SRSF protein kinase 2 (SRPK2, Homo sapiens, UniProt P78362)", "assay": "binding, competition with immobilised ligand", "conditions": "1 µM", "measurement": "remaining binding", "value": "99%"}
{"SMILES": "CC(c1cccc(-c2ccc(-c3cn(C)nn3)cc2)c1)N(C)C(=O)c1cc(S(N)(=O)=O)ccc1O (centres unmarked)", "target": "CA9", "assay": "enzyme activity, inhibitor", "measurement": "pIC50", "value": 7.66}
{"SMILES": "COc1cc(-c2cncc3c2CN(C)Cc2cc(N4CCNCC4)ccc2-3)cc(OC)c1OC", "target": "Serine/threonine-protein kinase Nek3 (NEK3, Homo sapiens, UniProt P51956)", "assay": "enzyme activity, inhibitor", "conditions": "1 µM", "measurement": "remaining activity", "value": "100%"}
{"note": "Repeated from above:"}
{"SMILES": "Cc1cc([C@@H](C)Nc2ccccc2C(=O)O)c2nc(N3CCC(F)(F)CC3)c(C#N)c(=O)n2c1", "target": "Cyclin-dependent kinase 7 (CDK7, Homo sapiens, UniProt P50613)", "assay": "binding, competition with immobilised ligand", "conditions": "10 µM", "measurement": "remaining binding", "value": "90%"}
